Results pooled from the literature.
Numbered parts are unrelated; each lists some results of a single study.

Study 1 — technique: RNA Bind-n-Seq; molecule type: RNA; medium: in vitro; tested at: 200 nM; setting: whole 134-nt RNA, ends assumed; with: 150 mM KCl; baseline: input library; reading: higher = stronger binding
Target: Ras GTPase-activating protein-binding protein 1, full length (G3BP1, Homo sapiens, UniProt Q13283)
UniProt Q13283, sequence (whole entry, looked up): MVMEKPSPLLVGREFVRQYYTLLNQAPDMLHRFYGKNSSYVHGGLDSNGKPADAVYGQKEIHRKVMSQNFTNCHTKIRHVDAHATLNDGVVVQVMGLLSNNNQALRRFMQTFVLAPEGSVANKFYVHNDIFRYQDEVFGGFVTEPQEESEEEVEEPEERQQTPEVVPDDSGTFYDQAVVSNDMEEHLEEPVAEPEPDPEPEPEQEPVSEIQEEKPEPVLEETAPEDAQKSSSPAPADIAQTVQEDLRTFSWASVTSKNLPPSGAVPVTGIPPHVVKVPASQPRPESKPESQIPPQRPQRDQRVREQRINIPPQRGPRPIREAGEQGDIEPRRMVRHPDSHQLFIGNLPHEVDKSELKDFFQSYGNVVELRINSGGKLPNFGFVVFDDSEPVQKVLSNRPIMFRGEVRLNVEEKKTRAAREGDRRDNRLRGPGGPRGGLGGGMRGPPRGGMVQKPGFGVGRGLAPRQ
| Oligonucleotide | log2 enrichment |
| --- | --- |
| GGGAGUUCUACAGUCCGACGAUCUCCUGUGCUACACAUCGUAUGUACCGAAUCGGGGAAAAAAAGGGGUUUGGGGAAAGGGGAAAGUAUUAUGUUACGCCGUUCGGAUCUGCAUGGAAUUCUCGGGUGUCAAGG | 0.869 |
| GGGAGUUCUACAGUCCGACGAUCUAACUUUAGAGGAGGAUCUGAUGGAUAUGGCAGUGGACGUGGAUUUGGGGAUGGCUAUAAUGGGUAUGGAGGAGGACCUGGAGCUGGCAAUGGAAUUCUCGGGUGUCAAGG | 0.184 |
| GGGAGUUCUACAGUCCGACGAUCCACAGACAACACGCACCCACACAGACACAGAGGGAAGGGGUUGGGAUGGGGACAGGGUGAAAAGCAGGGCGGGGUAGGACCCCAGCCCCUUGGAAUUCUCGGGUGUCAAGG | 1.58 |
| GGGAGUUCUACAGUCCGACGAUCACCAUAAAGGUGGGCAUCUUUGGGAAGUGGGGCAAGGGGGGGAUAGGGAGGGGGGUAACACUUUGGGAACAGGUGGUCCCAGGUCGUUUCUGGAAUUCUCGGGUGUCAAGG | 1.1 |
| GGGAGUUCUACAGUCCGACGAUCACCAUGCAGGUGGGCAUCUUUGGGAAGUGGGGCAAGGGGGGGAUAGGGAGGGAAAUAACACUUUGGGAACAGGUGGUCCCAGGUCGUUUCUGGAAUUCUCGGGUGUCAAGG | 0.95 |

Study 2 — technique: protein-binding microarray; molecule type: double-stranded DNA, one strand shown; medium: in vitro; tested at: 250 nM; setting: 60-bp whole probe; with: salmon DNA 0.4 mg/ml; baseline: random background probes; reading: higher = stronger binding
Target: Interferon regulatory factor 7, full length, phosphomimetic (IRF7, Homo sapiens, UniProt Q92985, residues 1-503, S101K/S471D/S472D/S475D/S476D/S477D/S483D/S484D/S487D)
UniProt Q92985, sequence (whole entry, unmodified, looked up): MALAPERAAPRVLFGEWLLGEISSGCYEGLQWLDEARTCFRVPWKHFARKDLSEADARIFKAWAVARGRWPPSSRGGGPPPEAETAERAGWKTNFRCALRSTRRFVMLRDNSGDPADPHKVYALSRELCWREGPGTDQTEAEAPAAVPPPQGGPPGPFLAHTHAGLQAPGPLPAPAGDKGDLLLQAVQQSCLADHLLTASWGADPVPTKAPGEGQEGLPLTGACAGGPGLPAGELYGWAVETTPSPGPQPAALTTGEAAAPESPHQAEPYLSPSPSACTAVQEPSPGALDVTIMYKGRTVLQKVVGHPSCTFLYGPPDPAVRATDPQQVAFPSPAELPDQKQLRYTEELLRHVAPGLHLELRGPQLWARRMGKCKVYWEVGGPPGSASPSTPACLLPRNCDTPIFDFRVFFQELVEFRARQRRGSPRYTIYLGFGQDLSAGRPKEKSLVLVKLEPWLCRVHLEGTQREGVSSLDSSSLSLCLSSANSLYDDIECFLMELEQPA
| Oligonucleotide | log fluorescence |
| --- | --- |
| GCCTAGCACTTAGGACTGGACACTGGCTTAGTGCTAGTCTTGATTCGCTTGACGCTGCTG | -0.702 z-score |
| GCCTAGCACTTAGGACTGGGGACTGGATTAGTGCTAGTCTTGATTCGCTTGACGCTGCTG | -0.329 z-score |
| GCCTAGCACTGAGATTTCGGGTATCGATTAGTGCTAGTCTTGATTCGCTTGACGCTGCTG | 1.58 z-score |
| GCCTAGCACTTAGATCGCAGTTTCGATTAGTGCTAGGTCTTGATTCGCTTGACGCTGCTG | 7.84 z-score |

Study 3 — technique: competition protein-binding microarray; molecule type: double-stranded DNA, one strand shown; medium: in vitro; tested at: 2 µM; with: Pho4 competitor, 0.05 µM; reading: higher = stronger binding
Target: Centromere-binding protein 1, full length, His-tagged (CBF1, Saccharomyces cerevisiae, UniProt P17106, residues 1-351)
UniProt P17106, sequence (whole entry, looked up): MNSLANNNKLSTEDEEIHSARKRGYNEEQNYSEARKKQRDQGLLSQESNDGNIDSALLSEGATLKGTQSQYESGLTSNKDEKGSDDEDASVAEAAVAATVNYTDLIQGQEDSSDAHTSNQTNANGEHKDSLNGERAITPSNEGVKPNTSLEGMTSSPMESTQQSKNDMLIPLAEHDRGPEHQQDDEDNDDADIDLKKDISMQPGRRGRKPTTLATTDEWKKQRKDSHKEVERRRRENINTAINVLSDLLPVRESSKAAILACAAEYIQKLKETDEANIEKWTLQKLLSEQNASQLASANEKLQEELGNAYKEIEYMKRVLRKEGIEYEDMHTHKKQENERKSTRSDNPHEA
Setting: whole 60-bp probe, lowest competitor level
| Oligonucleotide | fluorescence intensity [a.u.] |
| --- | --- |
| ATATGCCAGGCAAATAACGTGTCGGTGATTGTGAAGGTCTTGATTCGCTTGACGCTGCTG | 138 |
| CGTCCTAGTGATTGCCGGGTGGGTGCCATGAGGAAGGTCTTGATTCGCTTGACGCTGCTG | 76.2 |
| AAATTACTAAGTTGTCACCAGACTTACCCCGTATGAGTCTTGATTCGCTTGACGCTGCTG | 101 |
| TTGCCTTTTTCACTTCACGTGCTTTTGGTACATACTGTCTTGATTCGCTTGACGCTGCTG | 1440 |
| CGAAGGACGTCGCTACACGTGAAAATTCTCCACCAAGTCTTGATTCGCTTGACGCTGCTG | 593 |
| CGTCCTAGTGATTCTCACGTGTTTTCCATGAGGAAGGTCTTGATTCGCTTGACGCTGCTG | 1300 |
| CATACCCAACCTTGACGTGTGGGTGAAGATATTTGTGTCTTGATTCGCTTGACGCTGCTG | 79 |

Single results of other studies
| Molecule | target | assay | system | conditions | how to read | endpoint | value |
| --- | --- | --- | --- | --- | --- | --- | --- |
| PhoQ, residues 284 288 289 292 302 303 SSCCRF | PhoP, residues 12 14 15 18 19 TPWLV (Escherichia coli, UniProt P23836) | Sort-seq, item: YFP reporter | E. coli | PhoQ-PhoP variant library, with: 10 µM Mg2+ | baseline: high Mg2+ state, higher = stronger signaling | fold induction | 15.8 |

A few entries again (study 1):
| Oligonucleotide | log2 enrichment |
| --- | --- |
| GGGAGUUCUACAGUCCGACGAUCUCCUGUGCUACACAUCGUAUGUACCGAAUCGGGGAAAAAAAGGGGUUUGGGGAAAGGGGAAAGUAUUAUGUUACGCCGUUCGGAUCUGCAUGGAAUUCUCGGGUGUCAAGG | 0.869 |
| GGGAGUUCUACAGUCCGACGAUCUAACUUUAGAGGAGGAUCUGAUGGAUAUGGCAGUGGACGUGGAUUUGGGGAUGGCUAUAAUGGGUAUGGAGGAGGACCUGGAGCUGGCAAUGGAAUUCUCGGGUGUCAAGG | 0.184 |
